# Measurements from different studies.
# A part holds a random share of what one study measured.
# Chain of UniProt Q13546 (whole entry, looked up): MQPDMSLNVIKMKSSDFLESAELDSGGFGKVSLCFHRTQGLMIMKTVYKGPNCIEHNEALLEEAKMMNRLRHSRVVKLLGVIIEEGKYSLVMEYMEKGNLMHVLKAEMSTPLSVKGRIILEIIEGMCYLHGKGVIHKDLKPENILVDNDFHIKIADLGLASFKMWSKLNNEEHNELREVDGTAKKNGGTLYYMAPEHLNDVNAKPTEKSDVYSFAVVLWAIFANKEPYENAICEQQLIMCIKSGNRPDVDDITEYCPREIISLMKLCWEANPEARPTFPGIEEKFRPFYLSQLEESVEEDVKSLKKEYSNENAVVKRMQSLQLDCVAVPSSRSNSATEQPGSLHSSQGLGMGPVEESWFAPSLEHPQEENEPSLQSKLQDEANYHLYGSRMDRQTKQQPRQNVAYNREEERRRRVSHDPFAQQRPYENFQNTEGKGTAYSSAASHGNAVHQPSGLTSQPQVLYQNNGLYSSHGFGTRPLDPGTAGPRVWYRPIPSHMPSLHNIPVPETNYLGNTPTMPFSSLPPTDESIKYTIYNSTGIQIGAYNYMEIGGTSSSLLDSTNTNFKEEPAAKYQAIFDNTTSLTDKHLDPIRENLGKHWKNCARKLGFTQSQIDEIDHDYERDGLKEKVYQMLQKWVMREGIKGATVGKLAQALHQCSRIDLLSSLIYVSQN
# Chain of UniProt P06241 (whole entry, looked up): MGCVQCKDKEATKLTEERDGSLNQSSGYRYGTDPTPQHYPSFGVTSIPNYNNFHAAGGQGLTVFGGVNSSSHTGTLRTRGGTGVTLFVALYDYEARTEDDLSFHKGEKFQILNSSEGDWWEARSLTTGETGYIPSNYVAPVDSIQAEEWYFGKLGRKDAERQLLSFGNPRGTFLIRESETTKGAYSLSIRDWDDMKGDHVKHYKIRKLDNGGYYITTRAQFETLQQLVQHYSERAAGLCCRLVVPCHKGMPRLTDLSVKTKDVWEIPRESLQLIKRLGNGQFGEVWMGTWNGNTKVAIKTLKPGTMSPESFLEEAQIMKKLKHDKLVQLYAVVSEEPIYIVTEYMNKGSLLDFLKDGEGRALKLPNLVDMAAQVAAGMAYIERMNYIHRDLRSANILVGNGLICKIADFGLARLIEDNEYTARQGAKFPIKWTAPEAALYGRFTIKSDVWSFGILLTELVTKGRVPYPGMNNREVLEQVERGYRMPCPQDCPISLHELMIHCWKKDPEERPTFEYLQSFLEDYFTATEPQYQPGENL
# Chain of UniProt P53350 (whole entry, looked up): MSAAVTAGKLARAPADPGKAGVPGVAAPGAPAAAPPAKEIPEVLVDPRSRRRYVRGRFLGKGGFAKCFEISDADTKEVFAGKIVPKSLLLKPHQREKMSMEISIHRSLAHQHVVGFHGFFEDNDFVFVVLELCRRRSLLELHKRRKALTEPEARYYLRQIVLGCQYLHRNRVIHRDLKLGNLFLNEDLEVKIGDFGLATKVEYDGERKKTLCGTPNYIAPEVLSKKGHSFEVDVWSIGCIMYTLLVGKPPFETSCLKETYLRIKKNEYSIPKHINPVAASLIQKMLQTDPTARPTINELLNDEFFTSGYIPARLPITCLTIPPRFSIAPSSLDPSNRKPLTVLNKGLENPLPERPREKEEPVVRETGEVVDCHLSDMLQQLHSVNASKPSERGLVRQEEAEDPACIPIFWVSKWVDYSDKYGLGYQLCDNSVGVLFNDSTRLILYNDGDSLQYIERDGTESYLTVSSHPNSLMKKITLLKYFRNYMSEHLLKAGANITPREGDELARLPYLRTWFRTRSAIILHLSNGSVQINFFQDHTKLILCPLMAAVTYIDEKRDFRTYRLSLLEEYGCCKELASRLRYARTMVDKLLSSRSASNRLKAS
# Chain of UniProt Q13470 (whole entry, looked up): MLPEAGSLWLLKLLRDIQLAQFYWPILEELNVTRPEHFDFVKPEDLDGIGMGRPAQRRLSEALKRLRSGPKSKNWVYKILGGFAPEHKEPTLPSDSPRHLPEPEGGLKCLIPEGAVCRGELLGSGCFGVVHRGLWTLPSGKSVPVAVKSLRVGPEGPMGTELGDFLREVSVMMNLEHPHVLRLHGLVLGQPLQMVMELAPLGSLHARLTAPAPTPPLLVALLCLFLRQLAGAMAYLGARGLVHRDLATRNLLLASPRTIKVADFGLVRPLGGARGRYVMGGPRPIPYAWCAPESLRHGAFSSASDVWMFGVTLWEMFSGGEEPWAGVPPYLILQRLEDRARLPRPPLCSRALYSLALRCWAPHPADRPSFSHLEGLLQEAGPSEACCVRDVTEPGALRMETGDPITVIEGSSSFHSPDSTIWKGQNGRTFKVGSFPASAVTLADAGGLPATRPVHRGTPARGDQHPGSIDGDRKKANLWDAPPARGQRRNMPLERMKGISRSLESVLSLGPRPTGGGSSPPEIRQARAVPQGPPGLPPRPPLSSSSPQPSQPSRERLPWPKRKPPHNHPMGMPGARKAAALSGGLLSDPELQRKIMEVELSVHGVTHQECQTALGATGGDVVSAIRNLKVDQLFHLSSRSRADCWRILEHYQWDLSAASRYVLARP
# Chain of UniProt P08922 (whole entry, looked up): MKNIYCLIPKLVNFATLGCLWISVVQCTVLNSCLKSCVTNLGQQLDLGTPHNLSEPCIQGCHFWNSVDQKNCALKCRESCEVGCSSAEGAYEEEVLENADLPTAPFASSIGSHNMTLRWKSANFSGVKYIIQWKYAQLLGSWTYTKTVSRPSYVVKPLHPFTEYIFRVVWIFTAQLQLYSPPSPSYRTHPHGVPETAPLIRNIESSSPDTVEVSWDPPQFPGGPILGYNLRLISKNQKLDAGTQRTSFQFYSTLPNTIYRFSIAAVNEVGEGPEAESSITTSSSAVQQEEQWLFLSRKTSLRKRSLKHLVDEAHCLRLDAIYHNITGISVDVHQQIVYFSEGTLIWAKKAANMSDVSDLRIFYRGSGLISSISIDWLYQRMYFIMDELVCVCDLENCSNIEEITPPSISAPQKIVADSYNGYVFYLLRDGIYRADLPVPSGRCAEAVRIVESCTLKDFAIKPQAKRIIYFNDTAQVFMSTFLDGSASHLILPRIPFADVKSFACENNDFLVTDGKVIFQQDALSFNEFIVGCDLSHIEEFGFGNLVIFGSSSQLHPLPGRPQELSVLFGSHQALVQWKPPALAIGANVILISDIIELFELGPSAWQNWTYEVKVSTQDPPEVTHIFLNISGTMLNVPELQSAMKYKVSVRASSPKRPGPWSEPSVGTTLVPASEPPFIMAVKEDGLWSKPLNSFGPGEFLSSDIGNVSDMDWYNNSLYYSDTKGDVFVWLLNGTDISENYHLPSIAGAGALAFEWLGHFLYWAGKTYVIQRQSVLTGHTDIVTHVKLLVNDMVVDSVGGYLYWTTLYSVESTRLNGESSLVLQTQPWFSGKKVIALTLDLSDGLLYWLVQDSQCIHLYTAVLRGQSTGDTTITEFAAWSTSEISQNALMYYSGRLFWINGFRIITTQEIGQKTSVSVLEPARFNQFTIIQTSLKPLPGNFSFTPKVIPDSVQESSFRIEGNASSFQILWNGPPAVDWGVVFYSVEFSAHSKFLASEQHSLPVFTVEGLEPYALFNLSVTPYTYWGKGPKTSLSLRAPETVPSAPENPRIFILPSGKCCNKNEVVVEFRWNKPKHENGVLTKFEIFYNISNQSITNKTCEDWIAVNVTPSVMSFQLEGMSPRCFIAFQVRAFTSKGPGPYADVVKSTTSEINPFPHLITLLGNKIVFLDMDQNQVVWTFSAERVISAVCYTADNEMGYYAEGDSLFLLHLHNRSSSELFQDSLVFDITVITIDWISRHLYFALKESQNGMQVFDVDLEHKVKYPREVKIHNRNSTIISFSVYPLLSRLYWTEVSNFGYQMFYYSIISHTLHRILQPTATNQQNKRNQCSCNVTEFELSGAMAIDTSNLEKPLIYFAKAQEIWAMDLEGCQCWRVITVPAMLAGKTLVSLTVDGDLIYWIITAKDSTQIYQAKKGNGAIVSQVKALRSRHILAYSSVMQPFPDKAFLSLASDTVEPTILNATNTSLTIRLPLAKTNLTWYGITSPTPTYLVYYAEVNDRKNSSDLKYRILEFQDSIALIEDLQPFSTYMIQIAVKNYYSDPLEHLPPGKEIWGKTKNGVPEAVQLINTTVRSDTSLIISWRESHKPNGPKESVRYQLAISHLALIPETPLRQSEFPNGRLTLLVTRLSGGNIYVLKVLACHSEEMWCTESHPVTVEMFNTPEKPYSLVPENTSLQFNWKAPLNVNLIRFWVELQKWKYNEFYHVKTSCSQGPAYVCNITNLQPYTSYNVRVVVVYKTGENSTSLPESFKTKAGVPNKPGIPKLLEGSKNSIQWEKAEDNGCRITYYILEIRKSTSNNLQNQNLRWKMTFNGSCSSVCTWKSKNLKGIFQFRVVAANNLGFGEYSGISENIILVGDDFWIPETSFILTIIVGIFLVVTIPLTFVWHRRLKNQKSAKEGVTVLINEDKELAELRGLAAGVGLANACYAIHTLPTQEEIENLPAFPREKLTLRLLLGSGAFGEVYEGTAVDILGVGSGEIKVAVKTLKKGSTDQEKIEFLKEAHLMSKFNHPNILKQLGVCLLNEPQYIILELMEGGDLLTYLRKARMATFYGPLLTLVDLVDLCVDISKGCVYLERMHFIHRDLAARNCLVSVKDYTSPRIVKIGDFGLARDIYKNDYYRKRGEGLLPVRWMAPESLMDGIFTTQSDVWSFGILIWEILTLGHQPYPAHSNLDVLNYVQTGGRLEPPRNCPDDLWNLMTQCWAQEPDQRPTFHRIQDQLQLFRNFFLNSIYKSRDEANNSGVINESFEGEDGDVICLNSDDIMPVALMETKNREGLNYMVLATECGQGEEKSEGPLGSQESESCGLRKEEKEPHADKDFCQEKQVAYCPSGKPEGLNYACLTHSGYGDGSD

# Set 1
# SMILES: CCCCC(=O)Nc1ccc(-c2ccc3ncn(CCC)c(=O)c3c2)cn1
# Read-out: binding
# Method: competition with immobilised ligand
# Tested at: 0.5 µM
target,remaining binding
"FYN (Homo sapiens, UniProt P06241)",100%
"SBK3 (Homo sapiens, UniProt P0C264)",100%
"RIPK1 (Homo sapiens, UniProt Q13546)",100%
"TNK1 (Homo sapiens, UniProt Q13470)",100%

# Single results of other studies
SMILES,target,test,conditions,quantity,result
COc1cc(-c2cncc3c2CN(C)Cc2cc(N4CCNCC4)ccc2-3)cc(OC)c1OC,"SRC (Homo sapiens, UniProt P12931)","enzyme activity, inhibitor",1 µM,remaining activity,94%
C=CC(=O)N1CCC(COCC(=O)N2CCN(c3nc(-c4cnc(N)nc4C(F)F)nc(N4CCOC[C@@H]4C)n3)CC2)CC1,"PLK1 (Homo sapiens, UniProt P53350)","binding, competition with immobilised ligand",1 µM,remaining binding,100%
Cc1cc([C@@H](C)Nc2ccccc2C(=O)O)c2nc(N3CCC(F)(F)CC3)c(C#N)c(=O)n2c1,"CHUK (Homo sapiens, UniProt O15111)","binding, competition with immobilised ligand",10 µM,remaining binding,76%
CNc1ncc2c(/C=C/C(=O)N3CCC(OC)CC3)nn(Cc3cccc(C(F)(F)F)c3)c2n1,"ROS1 (Homo sapiens, UniProt P08922)","enzyme activity, inhibitor, radiometric",1 µM,remaining activity,79%

# For quick reference, copied from above (set 1):
target,remaining binding
"TNK1 (Homo sapiens, UniProt Q13470)",100%
